Experimental data from different studies.
Numbered parts are unrelated; each lists some results of a single study.

Series 1
Target: RING finger protein unkempt homolog, zinc fingers 1-6, GST-SBP tag (UNK, Homo sapiens, UniProt Q9C0B0, residues 30-357)
UniProt Q9C0B0, sequence (30-357, looked up): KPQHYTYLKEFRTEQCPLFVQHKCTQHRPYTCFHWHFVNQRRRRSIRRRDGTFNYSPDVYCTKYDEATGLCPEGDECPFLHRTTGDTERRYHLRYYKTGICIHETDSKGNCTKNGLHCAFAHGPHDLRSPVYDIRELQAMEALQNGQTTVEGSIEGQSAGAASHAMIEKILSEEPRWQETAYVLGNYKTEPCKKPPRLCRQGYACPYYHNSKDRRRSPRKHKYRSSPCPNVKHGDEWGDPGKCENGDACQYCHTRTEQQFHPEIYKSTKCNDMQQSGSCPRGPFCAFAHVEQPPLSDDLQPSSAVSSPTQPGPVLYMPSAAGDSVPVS
Method: RNA Bind-n-Seq
Molecule type: RNA
Matrix: in vitro
Concentration: not given
Setting: RNA with constant flanks, human and mouse sites, ends assumed
Baseline: input RNA pool
Reading: higher = stronger binding
| Sequence | bound/input enrichment [ratio] |
| --- | --- |
| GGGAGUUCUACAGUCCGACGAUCUCCUGGCCGCGCCCAGCCCCCUCUCGCCAUGCCGCCCGCGGGGCCCCGCGGGACCGCGCCGCUCGCAGCCGUCGUCCUGCUGGUGCUUGGGGCUCCUCUGGCGCUGGCGAGUGAGGACUGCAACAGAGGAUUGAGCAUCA | 0.44 |
| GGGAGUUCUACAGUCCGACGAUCUGUGAUGGGCAUUGAGCCACAUGUCUUCUGAGACUGAAUAUUGACAUUUUUGUUUCAAGUUAUGUUUUUAACAUUUAUUUCAGAACAAUAAAGAUUCAGAUUUGUGACAAAGGCCUUAAACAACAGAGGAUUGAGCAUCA | 0.166 |
| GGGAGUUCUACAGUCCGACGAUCGGCCUACCUCUUGUUUCUGCCCGGCCCUCUGGCCAGAGCCCUGGCCUGCAAGAGGGACAGAGCCUGGGAGACGCGCACUCCCGUUGGGUUUGAGACAGACACUUUUUAUAUUUACCUCCUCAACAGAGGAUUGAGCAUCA | 0.202 |
| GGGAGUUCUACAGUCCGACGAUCUUGCUUUGCUGGUUUCAUAUUUAUUUGUUGUAUUUAAAAACUGCAUUAUUGUGAGAGUGAUUUUUUUCCAGGAUAUUUUAUUCUUGGGGGAGGGGGUCAGUGCUAUAAUCUUGAAGAAAACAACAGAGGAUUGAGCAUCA | 0.543 |
| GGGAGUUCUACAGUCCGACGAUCGGUCCAGAGGCAGACCAGCCUGAGGCUGCUAAAUUCCGCCAGUUCUGGGGAUCCCGCUCGGAGCUUCGGCGUUUCCAGGACGGAGCCAUUCGGGAAGCUGUGGUCUGGGAGGCAGCCUCUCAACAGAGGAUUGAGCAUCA | 0.163 |
| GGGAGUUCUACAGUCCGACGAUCUGUCUGGCCCAGGUGCUGCAGAAGGAUGUGGGAAAGCGGCUGCAGGUUGGCCAGGAACUCAUAGACUAUUUCUCAGACAGACAGAAGUCUGCUGACCUUGAGCACGACCAGACCCUGUUGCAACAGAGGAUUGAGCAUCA | 0.647 |
| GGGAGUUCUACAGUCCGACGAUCGCGGCUUUUUGCCUUCUCUCUACUCUGGGGGGAUAUUUGGUCACCUCGUUCUUGUUGCUUAAAUACCCAGCGUUGCUGCACCAGAGAAAGAAACAGCGAUUCCUCAGUAGGCACAUCUCUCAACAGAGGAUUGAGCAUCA | 0.212 |
| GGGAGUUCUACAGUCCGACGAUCUGAGUGCACACCCCCCUCUGUGUGUGUGUGUGUGUGUGUGUGUGUAUGUGUGUGUAUGUGUAGGUCUGUAGAUCUCUUAUCCCUUAGUGAAGGUGAAUACCAGAAGUAAACACAGCCUCUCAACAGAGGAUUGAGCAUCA | 0.464 |
| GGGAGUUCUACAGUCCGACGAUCUUAUAUCUCAUUCUAAAGAUAUCUAGCAAAUCUCCAGCAGAGAUCUAGGACAGUGCCCAGGAAAGCAAUGGUAUCUGUUGGUAGGUACAGGACUGUAUAUAGGACUCUAUUCACUUAGCUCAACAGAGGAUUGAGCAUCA | 0.806 |
| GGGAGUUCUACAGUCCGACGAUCCAAGAUCACCUGUUGCCUGAAGCAGAAGAAAUCACUAUGAUCAGUAUUCAACUUGCUGCUAGGUUCCUCUUUACUACAGGAUUUCACACAAAGAAAGUAGUCCGUGGCUCUGCCAGUGAUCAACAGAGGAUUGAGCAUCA | 0.205 |
| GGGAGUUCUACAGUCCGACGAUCCAUCAACUUCUUGCAUUGAAAGAACAGGAACACAGGAAGGAACUUGAAACAAGGGAGUUUUUUACUGAUGCUGACUUCCAGGAUGCCUUAGCUAAAGAAAUAGCCAAAGAAGAGAAAAAGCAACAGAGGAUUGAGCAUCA | 0.363 |

Series 2
Target: Ras GTPase-activating protein-binding protein 1, C-terminal RGG region (G3BP1, Homo sapiens, UniProt Q13283)
UniProt Q13283, sequence (whole entry, looked up): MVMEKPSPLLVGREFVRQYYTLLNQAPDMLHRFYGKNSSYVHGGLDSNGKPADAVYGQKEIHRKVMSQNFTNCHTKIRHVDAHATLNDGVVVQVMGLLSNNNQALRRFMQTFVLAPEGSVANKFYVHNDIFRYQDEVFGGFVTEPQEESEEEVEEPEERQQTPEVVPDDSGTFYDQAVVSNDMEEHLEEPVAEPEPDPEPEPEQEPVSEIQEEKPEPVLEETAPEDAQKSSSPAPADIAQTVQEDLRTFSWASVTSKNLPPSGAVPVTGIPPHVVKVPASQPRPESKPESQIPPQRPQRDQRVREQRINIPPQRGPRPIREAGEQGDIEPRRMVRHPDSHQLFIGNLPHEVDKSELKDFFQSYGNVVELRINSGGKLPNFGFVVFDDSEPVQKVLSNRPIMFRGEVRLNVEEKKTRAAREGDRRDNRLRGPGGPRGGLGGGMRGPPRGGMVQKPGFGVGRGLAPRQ
Method: RNA Bind-n-Seq
Molecule type: RNA
Matrix: in vitro
Concentration: 1 µM
Setting: whole 134-nt RNA, ends assumed
Added: 150 mM KCl
Baseline: input library
Reading: higher = stronger binding
| Sequence | log2 enrichment |
| --- | --- |
| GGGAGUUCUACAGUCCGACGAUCUUUGUGAGACAUGUGAAAGGAGGACAUGGUCACAGUCAUGGACAUGGACACGCUCACAGUCAUACACGUGGAAGUCAUGGACAUGGAAGAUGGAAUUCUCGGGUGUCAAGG | -2.41 |
| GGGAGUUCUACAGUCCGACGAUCACCAUGCAGGUGGGCAUCUUUGGGAAGUGGGGCAAGGGGGGGAUAGGGAGGGGGGUAACACUUUGGGAACAGGCGGUCCCAGGUCGUUUCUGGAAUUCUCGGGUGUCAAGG | 2.2 |
| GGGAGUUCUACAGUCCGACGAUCUCCUGUGCUACACAUCGUAUGUACCGAAUCGGGGUUUGGGGUUUUUUUGGGGUUUGGGGAAAGUAUUAUGUUACGCCGUUCGGAUCUGCAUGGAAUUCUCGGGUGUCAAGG | 2.02 |
| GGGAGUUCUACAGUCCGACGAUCGCAGGAAGUAAAAACAAAUGGAAAUGCUUCGGAUAGUGGCAGGGGAGGGGGUUGCUAAGGAAAGGGUGGGAUGGGAGUGGGUAAAGAGUUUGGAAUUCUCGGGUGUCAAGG | 1.95 |
| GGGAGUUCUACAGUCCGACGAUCUCCUGUGCUACACAUCGUAUGUACCGAAUCGGGGCCCCCCGGGCCCCCCGGCCCCCCGGGAAAGUAUUAUGUUACGCCGUUCGGAUCUGCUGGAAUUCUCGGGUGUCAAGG | -0.718 |
| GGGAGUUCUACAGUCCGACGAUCGUCCUGUGCUACACAUCGUAUGUACCGAAUCGGGAAAAAAAGGGAAAAAGGGUUUGGGAAAGUAUUAUGUUACGCCGUUCGGAUCUGCACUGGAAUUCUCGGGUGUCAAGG | -0.315 |
| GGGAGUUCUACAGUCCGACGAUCUGUGCUACACAUCGUAUGUACCGAAUCGGGUUUUUUUGGGGUUUUUUUGGGGUUUUUUUGGGGAAAGUAUUAUGUUACGCCGUUCGGAUCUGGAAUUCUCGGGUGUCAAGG | -0.416 |
| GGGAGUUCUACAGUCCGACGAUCAGUCCUGUGCUACACAUCGUAUGUACCGAAUCAAAUUUUUAAACCCAAAUUUUUAAAAAAGUAUUAUGUUACGCCGUUCGGAUCUGCACUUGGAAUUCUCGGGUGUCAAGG | -1.23 |
| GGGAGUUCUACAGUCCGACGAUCGCAGUAAGUAAAAACAAAUGGAAAUGCUUCGGAUAGUGGCAGGGGUGGGGGUUGCUAAGGAAAGGGUGGGAUGGGAGUGGGUAAAGAGUUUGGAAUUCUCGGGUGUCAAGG | 1.75 |
| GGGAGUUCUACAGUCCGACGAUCACCAUGCAGGUGGGCAUCUUUGGGAAGUGGGGCAACGGGGGGAUAGGGAGGGGGGUAACACUUUGGGAACAGGUGGUCCCAGGUCGUUUCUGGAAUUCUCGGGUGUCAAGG | -1.14 |
| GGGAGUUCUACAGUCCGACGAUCGCAGGAAGUAAAAACAAAUGGAAAUGCUUCGGAUAGUGGCAGGGGUGGGGGUUGCUAAGGAAAGGGUGGGAUGGGAGUGGGUAAAGAGCUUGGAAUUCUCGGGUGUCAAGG | 1.67 |
| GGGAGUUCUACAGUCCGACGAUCUGGGAGGUGGAUUUUGUUUAUUUUUUUAGCUCAUUUCCAGGGGUGGGAAUUUUUUUUUAAUAUGAGUCAUGAAUAAAGUUGUUUUUGAAAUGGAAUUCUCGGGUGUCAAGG | 3.47 |
| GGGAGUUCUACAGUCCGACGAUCGUCCUGUGCUACACAUCGUAUGUACCGAAUCGGAAAAAAGGAAAAAAGGGAAAAAAGGGAAAGUAUUAUGUUACGCCGUUCGGAUCUGCAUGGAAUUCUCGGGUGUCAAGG | -1.69 |
| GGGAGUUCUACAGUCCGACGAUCUCCUGUGCUACACAUCGUAUGUACCGAAUCGGGGUUUUUGGGGUUUUUGGGUUUUUGGGAAAGUAUUAUGUUACGCCGUUCGGAUCUGCAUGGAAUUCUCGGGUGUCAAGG | 0.344 |

Series 3
Target: Interferon regulatory factor 5, full length, phosphomimetic (IRF5, Homo sapiens, UniProt Q13568-2, residues 1-514, S451D/S453D/S456D/S462D)
Method: protein-binding microarray
Molecule type: double-stranded DNA, one strand shown
Matrix: in vitro
Concentration: 940 nM top
Setting: 60-bp whole probe
Added: salmon DNA 0.4 mg/ml
Baseline: random background probes
Reading: higher = stronger binding
Constant ends, left off below: GCCTAGCAC … GTCTTGATTCGCTTGACGCTGCTG
| Sequence | fitted relative affinity [z-score] |
| --- | --- |
| TTAGGTCTCCTACTGCTGTAGTGCTAG | -0.192 |
| GACGGTATTCTACTGCTGACGTGCTAG | 0.186 |
| ACTAGATAAGACAAAGTGATGTGCTAG | -0.303 |
| AACGGACTGCTACTGCTGACGTGCTAG | -0.54 |
| TACTTTCTTTTTTTCTTTTAGTGCTAG | 3.68 |
| TAAGATATCAGTCTCGATTAGTGCTAG | 3.23 |
| TTCGGTTTCGGACTGGGTTAGTGCTAG | 5.85 |
| TTAGGTTTCGGACTGGGTTAGTGCTAG | 7.79 |
| GACGATATCAGTCTCGAGACGTGCTAG | 1.24 |
| AGCTGTTTGAGAAATCAGATGGTGCTA | 0.0523 |
| TTAGTTATCCTTATCCTTTAGTGCTAG | 0.917 |
| TTGGATTTCGGGACTGGATTAGTGCTA | 0.643 |
| GACGAACTGTGTATCGAGACGTGCTAG | 0.393 |
| GACGATACCAGTATCGAGACGTGCTAG | 3.2 |
| TCATTCCTGATCTCTGGTCTTGTGCTA | 0.286 |
| GACGAAATGGGGTATCGAGACGTGCTA | 1.03 |
| CTTTTTTTCCGAGTGAGTAAGTGCTAG | 0.45 |
| CTAGATATCAGACTGGATTAGTGCTAG | -0.455 |
| TTAGATCTCAGTTTCGCTTAGTGCTAG | 4.99 |

Series 4
Target: Histone acetyltransferase KAT6A, both winged helices, GST fusion (KAT6A, Homo sapiens, UniProt Q92794, residues 1-181)
Method: protein binding microarray
Molecule type: double-stranded DNA, one strand shown
Matrix: in vitro
Concentration: not given
Setting: 8-mer, flanks averaged, mean of 2 arrays, mostly near background
Baseline: not given
Reading: higher = stronger binding
Target sequence (chain): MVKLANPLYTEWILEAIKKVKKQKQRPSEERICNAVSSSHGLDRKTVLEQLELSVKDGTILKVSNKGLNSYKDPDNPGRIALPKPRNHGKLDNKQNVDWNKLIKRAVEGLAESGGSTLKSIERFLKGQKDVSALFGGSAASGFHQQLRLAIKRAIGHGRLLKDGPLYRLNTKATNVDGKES
| Sequence | E-score |
| --- | --- |
| CTAACCAG | -0.229 |
| GTCGAGCA | -0.118 |
| AGGTCATA | -0.141 |
| CCGAGTCC | 0.0968 |
| ACCCCCCC | -0.107 |
| CTGTGGGA | -0.13 |
| GAATATTC | 0.213 |
| ACTAATTA | -0.0972 |
| GGTGATCA | -0.0655 |
| GAGCACGC | 0.127 |
| GTTGCCGA | 0.159 |
| GTATCAAA | -0.0684 |
| GAACTGAA | 0.077 |
| AGACAACT | -0.259 |
| AATAGTCG | 0.0431 |
| GTGCACAA | -0.2 |
| CCCCTACA | -0.169 |
| CGTTATAA | 0.0667 |
| GGTGGGAA | -0.11 |
| ACCATTCC | -0.00679 |
| CCAATCCA | -0.215 |
| CTAATGAG | -0.0863 |
| AATTGAGT | -0.0273 |
| AACAAAGC | 0.0697 |
| ACTCCAGA | -0.194 |

Some of these lines once more (series 3):
| Sequence | fitted relative affinity [z-score] |
| --- | --- |
| GACGAACTGTGTATCGAGACGTGCTAG | 0.393 |
| TAAGATATCAGTCTCGATTAGTGCTAG | 3.23 |
| TCATTCCTGATCTCTGGTCTTGTGCTA | 0.286 |
| GACGGTATTCTACTGCTGACGTGCTAG | 0.186 |
| TTAGATCTCAGTTTCGCTTAGTGCTAG | 4.99 |
| TACTTTCTTTTTTTCTTTTAGTGCTAG | 3.68 |
| TTAGTTATCCTTATCCTTTAGTGCTAG | 0.917 |
| GACGAAATGGGGTATCGAGACGTGCTA | 1.03 |
| CTTTTTTTCCGAGTGAGTAAGTGCTAG | 0.45 |
